Published values of several laboratories.
± gives the spread as reported.

| SMILES | target or system | test | test system | setting | scale | measurement | value |
| --- | --- | --- | --- | --- | --- | --- | --- |
| CN1CCCNC(=O)c2cccc(c2)C(=O)NCCCN(C)CCCNc2cccc3c2C(=O)c2cccc(c2C3=O)NCCC1 | SAS | RNA-Seq, measured: ATF2 mRNA | – | 1 µM, 6 h | reference: untreated cells | log2 fold change | -1.49 |
| Cc1ncsc1-c1ccc(C(C)NC(=O)C2CC(O)CN2C(=O)C(NC(=O)CCCCCCCCCCN2CCCC(Nc3ncc(Cl)c(Nc4ccccc4S(=O)(=O)C(C)C)n3)C2)C(C)(C)C)cc1 (stereo not shown) | 22Rv1 | RNA-seq, measured: PPP1R3B mRNA | – | concentration not given | reference: DMSO | log2 fold change | -1.39 |
| Nc1ncc(-c2cc(-c3cnn(CC(F)(F)F)c3)ncc2F)nc1C(=O)NC1CNCC(F)C1 (stereo not shown) | CDK2 | KINOMEscan | – | 1 µM | reference: DMSO control | remaining binding | 100% |
| O=C(N/N=C/c1ccccn1)c1cc(-c2ccc(Cl)cc2)nc2ccccc12 | Mus musculus | gene silencing, high-content imaging | LDR reporter GFP cells | 30 h, retest run 2 | – | Emax | 149% |
| C=CC(=O)Nc1cccc(Cn2ncc3cnc(Nc4cnn(CCOC)c4)nc32)c1 | NIM1 human | binding, KINOMEscan | – | 100 nM | lower = stronger binding | percent of control | 98% |
| COc1nc(Nc2nc(O)c3ccccc3n2)nc2ccc(C)cc12 | Mus musculus | gene silencing, high-content imaging | LDR reporter GFP cells | 30 h, retest run 2 | – | Emax | 56% |
| CC(C)(C)c1cc(-c2ccc3cccnc3n2)nc(-c2ccc3cccnc3n2)c1.[Cl-].[Cl-].[Ru+2].c1cnc2c(c1)ccc1cccnc12 | A-375 | resazurin | – | added: light 523 nm, 20 mW, 100 J/cm2 | – | EC50 | 170 ± 4 µM |
| CC[n+]1cccc2cc(/C=N/NC(=O)c3cccc(C(=O)N/N=C/c4ccc5c(ccc[n+]5CC)c4)c3)ccc21 | hp2 hairpin duplex DNA | FRET melting | – | 1 µM, added: ds26 10 µM | – | ΔTm | 0.8 ± 0.1 °C |
| CNS(=O)(=O)Nc1nccc(Cc2c(C)c3ccc(Oc4ncccc4F)cc3oc2=O)c1F | OCI-Ly1 | cell viability | – | 7 days | – | IC50 | > 1 µM |
| O=C(N/N=C/c1ccc2c(ccc[n+]2Cc2ccccc2)c1)c1ccc2ccc3ccc(C(=O)N/N=C/c4ccc5c(ccc[n+]5Cc5ccccc5)c4)nc3c2n1 | MYC parallel G4 DNA | FRET melting | – | 1 µM, DNA 0.2 µM | – | ΔTm | 16.6 ± 2.3 °C |
| CCN(CC)CC(=O)Nc1cccc(-n2cc(-c3ccc4ccc(-c5cn(-c6cccc(NC(=O)CN(CC)CC)c6)nn5)cc4c3)nn2)c1 | RCC4 | PCR angiogenesis array, measured: JAG1 | – | 5 x IC50, 2 h, normoxia | reference: untreated | fold regulation | -1.14 |
| O=C(N/N=C/c1ccc2c(ccc[n+]2Cc2ccccc2)c1)c1cc(C(=O)N/N=C/c2ccc3c(ccc[n+]3Cc3ccccc3)c2)ncn1 | hp2 hairpin duplex DNA | FRET melting | – | 1 µM, added: ds26 10 µM | – | ΔTm | 1 ± 0.6 °C |
| COC1OC(C)C(OC2OC(C)C(OS(=O)(=O)O)C(OC3OC(C)C(OC4OC(C)C(OS(=O)(=O)O)C(OC5OC(C)C(OC6OC(C)C(OS(=O)(=O)O)C(OC7OC(C)C(OC8OC(C)C(OS(=O)(=O)O)C(OC9OC(C)C(OC%10OC(C)C(OS(=O)(=O)O)C(OC%11OC(C)C(OS(=O)(=O)O)C(OS(=O)(=O)O)C%11O)C%10O)C(OS(=O)(=O)O)C9O)C8O)C(OS(=O)(=O)O)C7O)C6O)C(OS(=O)(=O)O)C5O)C4O)C(OS(=O)(=O)O)C3O)C2O)C(OS(=O)(=O)O)C1O (stereo not shown) | – | – | human plasma | 128 µg/mL | – | prothrombin time | 14.8 ± 0.4 s |
| CC(C)C[C@H](NC(=O)[C@H](CC(=O)O)NC(=O)CNC(=O)[C@@H](N)CCCNC(=N)N)C(=O)N[C@@H](C)C(=O)N[C@H](C(=O)N[C@@H](CC(C)C)C(=O)N[C@@H](CCCNC(=N)N)C(=O)N[C@@H](CCC(N)=O)C(=O)N[C@@H](CC(C)C)C(=O)N[C@@H](C)C(=O)N[C@@H](CCC(N)=O)C(=O)N[C@@H](CCC(=O)O)C(=O)N[C@@H](CC(=O)O)C(=O)NCC(=O)N[C@H](C(=O)N[C@H](C(=O)NCC(=O)N[C@H](C(=O)N[C@@H](CCCNC(=N)N)C(=O)NCCOCCOCCOCCOCCOCCOCCOCCOCCOCCOCCOCCOCCC(=O)N[C@@H](CS)C(N)=O)C(C)C)C(C)C)C(C)C)[C@@H](C)O | – | ex vivo NIR imaging | NOD/SCID mice, xenograft, H2009 xenograft | intravenous, 30 µg, 24 h | reference: spleen | fluorescence signal ratio | 355 |
| COc1ccc2c(C)nc(Nc3nc(O)cc(-c4ccccc4)n3)nc2c1 | Mus musculus | gene silencing, high-content imaging | LDR reporter GFP cells | retest, mean of two runs | – | EC50 | 6.31 µM |
| O=C(N/N=C/c1cc[n+](CC2CC2)c2ccccc12)c1ccc2ccc3ccc(C(=O)N/N=C/c4cc[n+](CC5CC5)c5ccccc45)nc3c2n1 | hp2 hairpin duplex DNA | FRET melting | – | 1 µM | – | ΔTm | 2.2 ± 0.4 °C |

| SMILES | target or system | test | test system | setting | scale | measurement | value |
| --- | --- | --- | --- | --- | --- | --- | --- |
| O=C(CSc1cccc[n+]1[O-])c1ccccc1Br | Mus musculus | gene silencing, high-content imaging | LDR reporter GFP cells | retest run 2 | – | AC50 | 10 µM |
| COC1CN([C@H]2CC[C@H]([C@@]3(C)Oc4c(Cl)cc(C(=O)NCc5c(SC)cc(C)[nH]c5=O)c(C)c4O3)CC2)C1 | – | RNA-seq, measured: SMPD3 | human, whole blood | dose not given, 24 h | reference: pretreatment baseline | log2 fold change | 1.39 |
| C[n+]1cccc2cc(/C=N/NC(=O)c3cncc(C(=O)N/N=C/c4ccc5c(ccc[n+]5C)c4)n3)ccc21 | hp2 hairpin duplex DNA | FRET melting | – | 1 µM | – | ΔTm | 1.1 °C |
| O=S(=O)(c1ccc(-c2ccc3ncnc(Nc4ccc(OCc5cccc(Cl)c5)c(Cl)c4)c3c2)cc1)N1CCOCC1 | Leishmania major | parasite growth, resazurin | – | promastigote | – | EC50 | > 15 µM |
| CC1=C/C(=N\N=C(/S)Nc2cccnc2)CC(C)(C)C1 | Mus musculus | gene silencing, high-content imaging | LDR reporter GFP cells | 30 h, retest run 2 | – | Emax | 68% |
| COC1OC(C)C(OC2OC(C)C(O)C(OC3OC(C)C(OC4OC(C)C(O)C(OC5OC(C)C(O)C(OS(=O)(=O)O)C5OS(=O)(=O)O)C4OS(=O)(=O)O)C(OS(=O)(=O)O)C3OS(=O)(=O)O)C2OS(=O)(=O)O)C(OS(=O)(=O)O)C1OS(=O)(=O)O (stereo not shown) | – | – | human plasma | 128 µg/mL | reference: control | prothrombin time prolongation | 0.95 fold |
| Cc1ccc(/C=N/N=C(\S)Nc2cccc(S(=O)(=O)N(C)C)c2)o1 | Mus musculus | gene silencing, high-content imaging | LDR reporter GFP cells | 30 h, confirmation, mean of two runs | – | Emax | 34% |
| C[n+]1cc(/C=N/NC(=O)c2cccc(C(=O)N/N=C/c3cc4ccccc4[n+](C)c3)n2)cc2ccccc21 | MYC parallel G4 DNA | FRET melting | – | 1 µM, DNA 0.2 µM, added: duplex DNA competitor 10 µM | – | ΔTm | 6.1 ± 0.6 °C |
| COC1OC(C)C(OC2OC(C)C(OS(=O)(=O)O)C(OS(=O)(=O)O)C2OS(=O)(=O)O)C(OS(=O)(=O)O)C1OS(=O)(=O)O (stereo not shown) | – | – | human plasma | 128 µg/mL | reference: control | prothrombin time prolongation | 1.03 fold |
| C=CC(=O)N1[C@@H](c2ccc3c(c2)OCO3)c2[nH]c3ccccc3c2C[C@H]1C(=O)N1CCN(C)CC1 | human cyclin E1 wild type-3xFLAG:CDK2 | co-IP with TMT proteomics, measured: SRP9 | – | concentration not given, P49458 | reference: wild type DMSO | relative co-enrichment | 91% |
| COC1OC(C)C(OS(=O)(=O)O)C(OC2OC(C)C(OS(=O)(=O)O)C(OC3OC(C)C(OS(=O)(=O)O)C(OS(=O)(=O)O)C3O)C2O)C1O (stereo not shown) | – | – | human plasma | 128 µg/mL | – | prothrombin time | 14.3 ± 0.4 s |
| O=C(N/N=C/c1ccc2c(ccc[n+]2Cc2ccccc2)c1)c1cccc(C(=O)N/N=C/c2ccc3c(ccc[n+]3Cc3ccccc3)c2)n1 | MYC parallel G4 DNA | FRET melting | – | 1 µM, DNA 0.2 µM, added: duplex DNA competitor 10 µM | – | ΔTm | 11.8 ± 0.1 °C |
| N=C(S)N/N=C/c1ncc(C(F)(F)F)cc1Cl | Mus musculus | gene silencing, high-content imaging | LDR reporter GFP cells | retest run 1 | – | AC50 | 10 µM |
| C[n+]1ccc(/C=N/NC(=O)c2ccc3ccc4ccc(C(=O)N/N=C/c5cc[n+](C)c6ccccc56)nc4c3n2)c2ccccc21 | hp2 hairpin duplex DNA | FRET melting | – | 1 µM | – | ΔTm | -0.3 ± 2.3 °C |
| O=C(NN1C(=O)c2ccccc2NC1c1ccc([N+](=O)[O-])o1)c1ccc([N+](=O)[O-])cc1 (stereo not shown) | Mus musculus | gene silencing, high-content imaging | LDR reporter GFP cells | 30 h, retest, mean of two runs | – | Emax | 119% |
